Published values of several laboratories.
Each line is one published result; not all experiments were run side by side. “And” joins repeats or separate records; there may be more than shown. Numbers after ± are the reported error.
B1: CFH domains 1108-1231 R1210C (Homo sapiens, UniProt P08603); sequence looked up; chain KCGPPPPIDNGDITSFPLSVYAPASSVEYQCQNLYQLEGNKRITCRNGQWSEPPKCLHPCVISREIMENYNIALRWTAKQKLYSRTGESVEFVCKRGYRLSSCSHTLRTTCWDGKLEYPTCAKR
B2: OTULIN 55-352 W96R/C129S (Homo sapiens, UniProt Q96BN8); sequence looked up; chain MYRAADEIEKEKELLIHERGASEPRLSVAPEMDIMDYCKKERRGNTQKATCMKMGYEEVSQKFTSIRRVRGDNYSALRATLFQAMSQAVGLPPWLQDPELMLLPEKLISKYNWIKQWKLGLKFDGKNEDLVDKIKESLTLLRKKWAGLAEMRTAEARQIACDELFTNEAEEYSLYEAVKFLMLNRAIELYNDKEKGKEVPFFSVLLFARDTSNDPGQLLRNHLNQVGHTGGLEQVEMFLLAYAVRHTIQVYRLSKYNTEEFITVYPTDPPKDWPVVTLIAEDDRHYNIPVRVCEETSL
B3: EFR3A 721-791 (Homo sapiens, UniProt Q14156); chain SNTEEITFEALKKAIDTSGMEEQEKEKRRLVIEKFQKAPFEEIAAQCESKANLLHDRLAQILELTIRPPPS
B4: NR3C1 1-420 (Homo sapiens, UniProt P04150); pyrene label; chain MDSKESLTPGREENPSSVLAQERGDVMDFYKTLRGGATVKVSASSPSLAVASQSDSKQRRLLVDFPKGSVSNAQQPDLSKAVSLSMGLYMGETETKVMGNDLGFPQQGQISLSSGETDLKLLEESIANLNRSTSVPENPKSSASTAVSAAPTEKEFPKTHSDVSSEQQHLKGQTGTNGGNVKLYTTDQSTFDILQDLEFSSGSPGKETNESPWRSDLLIDENCLLSPLAGEDDSFLLEGNSNEDCKPLILPDTKPKIKDNGDLVLSSPSNVTLPQVKTEKEDFIELCTPGVIKQEKLGTVYCQASFPGANIIGNKMSAISVHGVSTSGGQMYHYDMNTASLSQQQDQKPIFNVIPPIPVGSENWNRCQGSGDDNLTSLGTLNFPGRTVFSNGYSSPSMRPDVSSPPSSSSTATTGPPPKL
B5: IgG H:S99A; V domains shown; VH QVQLVQSGAEVKKPGASVKVSCKASGYTFTNYGLSWVRQAPGQGLEWMGWISANNGDTNYGQEFQGRVTMTTDTSTSTAYMELRSLRSDDTAVYYCARDSSSAWARWFFDLWGRGTLVTVSS; VL SYVLTQPPSVSVAPGKTARITCGGNIIGSKLVHWYQQKPGQAPVLVIYDDGDRPSGIPERFSGSNSGNTATLTISRVEAGDEADYYCQVWDTGSDPVVFGGGTKLTVL
B6: sst2 catalytic domain 245-435 F403A (Schizosaccharomyces pombe, UniProt Q9P371); sequence looked up; chain AGTFKIHAYTEGGKPLRTIYLPKLLKKVFLDVVKPNTKKNLETCGILCGKLRQNAFFITHLVIPLQEATSDTCGTTDEASLFEFQDKHNLLTLGWIHTHPTQTCFMSSVDLHTHCSYQLMLPEAIAIVMAPSKNTSGIFRLLDPEGLQTIVKCRKPGLAHPHEGKVYTMVAQPGHVREINSKLQVVDLRVK
Chain of UniProt P01024 (whole entry, looked up): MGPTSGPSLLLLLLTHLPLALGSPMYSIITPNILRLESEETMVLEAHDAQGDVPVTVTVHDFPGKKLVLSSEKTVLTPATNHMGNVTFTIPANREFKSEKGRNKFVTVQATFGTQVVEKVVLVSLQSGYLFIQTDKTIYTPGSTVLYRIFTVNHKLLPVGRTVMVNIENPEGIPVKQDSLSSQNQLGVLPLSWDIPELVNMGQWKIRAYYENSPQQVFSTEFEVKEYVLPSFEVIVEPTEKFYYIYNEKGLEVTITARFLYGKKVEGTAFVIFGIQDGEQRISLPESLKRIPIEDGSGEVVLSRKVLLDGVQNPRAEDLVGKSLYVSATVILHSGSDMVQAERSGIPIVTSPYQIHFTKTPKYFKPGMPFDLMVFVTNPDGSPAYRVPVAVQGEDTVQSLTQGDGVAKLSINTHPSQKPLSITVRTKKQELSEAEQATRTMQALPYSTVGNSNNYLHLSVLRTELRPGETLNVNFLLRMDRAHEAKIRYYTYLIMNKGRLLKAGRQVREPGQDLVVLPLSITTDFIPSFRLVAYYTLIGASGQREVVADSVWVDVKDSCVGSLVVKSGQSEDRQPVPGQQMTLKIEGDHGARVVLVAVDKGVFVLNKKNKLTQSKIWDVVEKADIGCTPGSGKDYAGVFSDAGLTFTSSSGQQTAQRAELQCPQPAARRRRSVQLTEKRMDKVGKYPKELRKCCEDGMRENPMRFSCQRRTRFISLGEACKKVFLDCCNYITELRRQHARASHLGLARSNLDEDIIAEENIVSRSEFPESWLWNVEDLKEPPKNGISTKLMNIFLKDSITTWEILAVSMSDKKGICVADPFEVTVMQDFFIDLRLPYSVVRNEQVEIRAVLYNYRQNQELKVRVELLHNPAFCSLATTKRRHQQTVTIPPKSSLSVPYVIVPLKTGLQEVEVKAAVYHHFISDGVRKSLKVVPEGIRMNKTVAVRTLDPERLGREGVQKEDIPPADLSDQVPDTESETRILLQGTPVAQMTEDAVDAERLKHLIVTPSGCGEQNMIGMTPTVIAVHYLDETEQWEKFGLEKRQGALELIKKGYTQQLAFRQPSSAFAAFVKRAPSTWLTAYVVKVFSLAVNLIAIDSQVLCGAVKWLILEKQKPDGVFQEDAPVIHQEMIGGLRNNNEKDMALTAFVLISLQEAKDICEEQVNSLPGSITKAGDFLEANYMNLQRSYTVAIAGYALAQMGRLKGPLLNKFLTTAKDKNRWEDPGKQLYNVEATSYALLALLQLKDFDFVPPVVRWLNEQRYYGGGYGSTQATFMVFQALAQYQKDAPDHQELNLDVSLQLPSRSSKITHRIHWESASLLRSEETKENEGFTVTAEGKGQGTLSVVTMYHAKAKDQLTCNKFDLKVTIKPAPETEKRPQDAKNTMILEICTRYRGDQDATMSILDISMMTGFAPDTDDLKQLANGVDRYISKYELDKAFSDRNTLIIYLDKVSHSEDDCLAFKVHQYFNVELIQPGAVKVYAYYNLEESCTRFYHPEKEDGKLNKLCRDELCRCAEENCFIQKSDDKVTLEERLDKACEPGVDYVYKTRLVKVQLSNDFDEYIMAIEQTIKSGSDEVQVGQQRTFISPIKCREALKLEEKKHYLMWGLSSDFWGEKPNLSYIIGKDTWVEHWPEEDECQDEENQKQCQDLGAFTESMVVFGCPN
Chain of UniProt P26039 (whole entry, looked up): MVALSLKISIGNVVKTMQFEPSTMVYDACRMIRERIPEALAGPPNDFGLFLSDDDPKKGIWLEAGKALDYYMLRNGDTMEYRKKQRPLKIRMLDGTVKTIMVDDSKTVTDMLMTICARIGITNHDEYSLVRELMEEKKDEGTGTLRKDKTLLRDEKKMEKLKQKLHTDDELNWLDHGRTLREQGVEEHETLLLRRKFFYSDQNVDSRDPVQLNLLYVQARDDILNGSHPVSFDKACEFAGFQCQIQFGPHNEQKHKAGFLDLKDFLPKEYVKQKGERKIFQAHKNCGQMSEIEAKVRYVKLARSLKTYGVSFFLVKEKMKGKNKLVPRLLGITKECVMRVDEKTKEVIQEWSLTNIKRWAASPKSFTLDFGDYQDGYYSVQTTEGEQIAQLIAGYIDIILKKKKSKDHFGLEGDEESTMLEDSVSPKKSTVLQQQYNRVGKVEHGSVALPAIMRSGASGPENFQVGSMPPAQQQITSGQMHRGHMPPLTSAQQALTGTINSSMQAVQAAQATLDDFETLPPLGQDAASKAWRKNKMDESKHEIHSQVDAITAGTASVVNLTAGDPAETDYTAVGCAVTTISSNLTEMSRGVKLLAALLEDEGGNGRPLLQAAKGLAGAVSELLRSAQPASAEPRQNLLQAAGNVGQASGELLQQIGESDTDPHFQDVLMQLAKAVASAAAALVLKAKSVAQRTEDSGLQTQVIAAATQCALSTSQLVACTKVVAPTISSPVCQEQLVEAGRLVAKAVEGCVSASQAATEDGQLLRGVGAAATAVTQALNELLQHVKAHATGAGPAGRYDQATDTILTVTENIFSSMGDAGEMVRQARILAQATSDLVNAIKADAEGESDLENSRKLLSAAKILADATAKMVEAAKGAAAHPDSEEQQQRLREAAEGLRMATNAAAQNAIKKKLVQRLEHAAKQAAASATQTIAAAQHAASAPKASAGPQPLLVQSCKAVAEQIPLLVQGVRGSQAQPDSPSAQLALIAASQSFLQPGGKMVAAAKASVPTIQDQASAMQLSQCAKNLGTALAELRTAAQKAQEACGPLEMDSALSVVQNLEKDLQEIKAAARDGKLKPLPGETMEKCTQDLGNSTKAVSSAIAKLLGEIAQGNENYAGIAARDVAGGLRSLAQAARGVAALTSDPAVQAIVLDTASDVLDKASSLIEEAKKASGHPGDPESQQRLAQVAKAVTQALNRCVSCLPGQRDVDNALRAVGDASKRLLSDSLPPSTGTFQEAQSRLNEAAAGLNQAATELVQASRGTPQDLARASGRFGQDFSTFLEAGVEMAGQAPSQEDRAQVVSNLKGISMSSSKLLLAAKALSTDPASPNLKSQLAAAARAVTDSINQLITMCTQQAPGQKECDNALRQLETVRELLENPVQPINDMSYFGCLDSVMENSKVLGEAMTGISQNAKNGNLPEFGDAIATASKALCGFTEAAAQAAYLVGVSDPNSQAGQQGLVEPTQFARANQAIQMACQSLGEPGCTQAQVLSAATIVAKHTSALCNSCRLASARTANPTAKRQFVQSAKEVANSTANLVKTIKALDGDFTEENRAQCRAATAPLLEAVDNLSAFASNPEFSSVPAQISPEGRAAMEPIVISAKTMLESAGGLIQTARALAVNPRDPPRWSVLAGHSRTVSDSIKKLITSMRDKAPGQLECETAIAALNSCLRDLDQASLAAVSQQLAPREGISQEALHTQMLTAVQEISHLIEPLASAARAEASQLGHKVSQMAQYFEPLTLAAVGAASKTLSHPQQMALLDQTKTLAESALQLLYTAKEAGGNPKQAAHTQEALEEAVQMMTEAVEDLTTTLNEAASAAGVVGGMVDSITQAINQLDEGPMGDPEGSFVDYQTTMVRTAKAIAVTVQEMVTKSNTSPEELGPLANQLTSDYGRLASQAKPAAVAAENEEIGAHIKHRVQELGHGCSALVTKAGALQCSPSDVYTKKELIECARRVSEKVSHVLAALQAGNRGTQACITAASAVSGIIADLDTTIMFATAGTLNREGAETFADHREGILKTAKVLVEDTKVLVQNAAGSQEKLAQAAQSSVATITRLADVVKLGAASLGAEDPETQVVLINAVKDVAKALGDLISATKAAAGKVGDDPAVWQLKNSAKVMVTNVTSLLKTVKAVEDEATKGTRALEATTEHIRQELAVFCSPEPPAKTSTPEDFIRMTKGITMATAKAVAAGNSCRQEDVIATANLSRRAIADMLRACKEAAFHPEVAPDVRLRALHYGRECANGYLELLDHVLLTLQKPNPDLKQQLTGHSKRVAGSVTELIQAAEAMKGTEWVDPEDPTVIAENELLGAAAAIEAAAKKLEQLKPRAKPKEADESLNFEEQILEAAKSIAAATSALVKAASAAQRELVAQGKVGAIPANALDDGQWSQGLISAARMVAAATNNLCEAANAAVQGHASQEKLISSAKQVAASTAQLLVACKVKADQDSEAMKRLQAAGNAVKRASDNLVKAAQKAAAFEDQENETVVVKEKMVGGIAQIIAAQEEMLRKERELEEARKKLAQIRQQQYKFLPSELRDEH
Chain of UniProt P25963 (whole entry, looked up): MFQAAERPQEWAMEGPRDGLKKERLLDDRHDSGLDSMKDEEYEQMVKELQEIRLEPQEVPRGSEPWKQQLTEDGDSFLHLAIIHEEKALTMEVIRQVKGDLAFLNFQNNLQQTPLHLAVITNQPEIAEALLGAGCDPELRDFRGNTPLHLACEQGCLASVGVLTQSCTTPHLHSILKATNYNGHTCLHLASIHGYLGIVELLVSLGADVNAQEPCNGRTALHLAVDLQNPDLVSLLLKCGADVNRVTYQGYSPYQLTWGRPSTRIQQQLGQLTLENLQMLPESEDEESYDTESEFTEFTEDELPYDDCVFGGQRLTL
Chain of UniProt Q99816 (whole entry, looked up): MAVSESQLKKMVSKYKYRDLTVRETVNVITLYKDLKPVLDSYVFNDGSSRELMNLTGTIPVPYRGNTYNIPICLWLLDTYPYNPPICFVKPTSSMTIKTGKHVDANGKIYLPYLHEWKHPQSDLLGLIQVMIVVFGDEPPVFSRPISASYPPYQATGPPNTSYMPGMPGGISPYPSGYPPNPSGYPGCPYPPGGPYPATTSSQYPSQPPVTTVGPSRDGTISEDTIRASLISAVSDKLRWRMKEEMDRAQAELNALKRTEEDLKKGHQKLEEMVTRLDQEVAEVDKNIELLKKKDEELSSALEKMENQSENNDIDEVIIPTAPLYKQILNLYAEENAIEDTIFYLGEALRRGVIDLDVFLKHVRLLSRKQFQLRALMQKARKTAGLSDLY

Substance = B1 (CFH domains 1108-1231 R1210C); target or system = C3 C3dg 955-1303 (Homo sapiens, UniProt P01024); test = SPR; measurement = Kd; value = 2.4 ± 0.1 µM
Substance = AGAGAGAGAGAG (dsDNA); target or system = Fibroin-modulator-binding protein-1 99-193 (Bombyx mori, UniProt Q5FBS0); test = ITC; test system = double-stranded DNA, one strand shown; measurement = Kd; value = 5.31 ± 0.475 µM
Substance = DDRHRIEEKRKRTYETFKSIMKKSPFNGP (Rela 293-321 (Mus musculus, UniProt Q04207); sequence looked up); target or system = NFKBIA 67-206 (Homo sapiens, UniProt P25963); test = ITC; test system = peptide; measurement = Kd; value = 0.371 ± 0.001 µM
Substance = petF ferredoxin (Synechocystis sp. PCC 6803, UniProt P27320); target or system = narB R351K (Synechococcus sp. PCC 7942); test = UV-visible difference titration; measurement = Kd; value = 1.4 ± 0.6 µM
Substance = PUX5 fragment F304A/L311A (Arabidopsis thaliana); target or system = CDC48A 1-463 (Arabidopsis thaliana, UniProt P54609); test = ITC; conditions = 25 °C; measurement = Kd; value = 2.1 ± 0.2 µM
Substance = B2 (OTULIN 55-352 W96R/C129S); target or system = linear di-ubiquitin fragment; test = ITC; measurement = Kd; value = 19.2 µM
Substance = B3 (EFR3A 721-791); target or system = TTC7A/FAM126A 1-308; test = BLI; measurement = Kd; value = 0.000718 µM
Substance = B4 (NR3C1 1-420); target or system = TSG101 229-304 coiled coil, pyrene label (Homo sapiens, UniProt Q99816); test = fluorescence anisotropy; measurement = Kd; value = 21 µM
Substance = TCP-1 alpha; test = co-immunoprecipitation; test system = human RBC cytosol; conditions = DMTMM crosslinker, unit not given, added: Band 3 peptide 1-56 bait; how to read = reference: negative control; measurement = co-IP enrichment; value = 28000
Substance = TSTVQLIMQL; target or system = HLA class I histocompatibility antigen, A alpha chain, allele A*01:01 (Homo sapiens, UniProt P04439); test = conformational ELISA; test system = peptide; conditions = concentration not given; how to read = reference: positive control peptide, direction not given; measurement = binding score; value = 0.6% and 0.5%
Substance = B5 (IgG H:S99A); target or system = IL13 fragment (Homo sapiens); test = SPR; test system = antibody; measurement = Kd; value = 5.7e-05 µM
Substance = VMRLQSETSV; target or system = human MAGI1-2/6 PDZ construct (MBP fusion); test = automated holdup; test system = peptide, purified PDZ protein; conditions = concentration not given, unit not given; how to read = reference: biotin control resin, higher = stronger binding; measurement = binding intensity; value = 0.247
Substance = KLLMIIHDRREFAKFEKEKMNAKWDTGENPIYKEAVTTVVNPKYEGK (ITGB1 752-798 S785E (Homo sapiens, UniProt P05556-1); sequence looked up); target or system = Tln1 309-405 (Mus musculus, UniProt P26039); test = NMR titration; measurement = Kd; value = 494 µM
Substance = B6; target or system = UBB mature (UniProt P0CG47); test = ITC; measurement = Kd; value = 6.2 ± 0.5 µM
Substance = GSGSEVLKKCCYSLHPIP (designed peptide); target or system = ERBB2 23-652 (Homo sapiens, UniProt P04626); test = ELISA; test system = peptide; measurement = Kd; value = 7.6 ± 1.5 µM
Substance = GLFQWIAQA; target or system = Jurkat T cells expressing 1G4 TCR; test = NFAT-eGFP reporter, flow cytometry; test system = peptide; conditions = concentration not given, HLA-A*02:01 NY-ESO system; measurement = reporter activation; value = 0.16%

Excerpt of the above:
Substance = VMRLQSETSV; target or system = human MAGI1-2/6 PDZ construct (MBP fusion); test = automated holdup; test system = peptide, purified PDZ protein; conditions = concentration not given, unit not given; how to read = reference: biotin control resin, higher = stronger binding; measurement = binding intensity; value = 0.247
Substance = KLLMIIHDRREFAKFEKEKMNAKWDTGENPIYKEAVTTVVNPKYEGK (ITGB1 752-798 S785E (Homo sapiens, UniProt P05556-1); sequence looked up); target or system = Tln1 309-405 (Mus musculus, UniProt P26039); test = NMR titration; measurement = Kd; value = 494 µM
